{"data": "Published values from different studies", "note": "Protocols differ between the studies behind these lines. ± marks the error that the study gave."}
{"SMILES": "CC[C@@H]1C[C@]1(NC(=O)[C@@H]1C[C@@]2(CN1C(=O)[C@@H](NC(=O)[C@@H](NC(=O)[C@@H]1CCCCN1C(C)C)C1CCCCC1)C(C)(C)C)C(C)(C)C21CCC1)C(=O)NS(=O)(=O)N1CCCC1", "test system": "human", "setting": "oral, 50 mg, with: ritonavir", "scale": "baseline: without ritonavir", "endpoint": "fold increase in Cmax", "value": "~10 fold"}
{"SMILES": "CCCCCCCCCCCCCCC(=O)N[C@@H](CCCCN)C(=O)N[C@@H](CCCCN)C(=O)N[C@@H](CCCCN)C(=O)N[C@@H](CCCCN)C(N)=O", "test system": "Galleria mellonella larvae", "setting": "50 mg/kg, 4 d", "endpoint": "survival", "value": "0%"}
{"SMILES": "[11CH3]n1c(=O)n(CCCO)c(=O)c2c1nc(Oc1cccc(OC(F)(F)F)c1)n2Cc1ccc(Cl)cc1", "test": "ex vivo biodistribution", "test system": "Sprague Dawley rat, brain", "setting": "60 min post injection", "endpoint": "tracer uptake", "value": "0.25 ± 0.03 %ID/g"}
{"SMILES": "COc1cc2ncnc(Oc3cccc(N[11C](=O)Nc4cc(C(C)(C)C(F)(F)F)on4)c3)c2cc1OC", "test": "radio-HPLC", "test system": "female Balb/c nude mice, plasma", "setting": "intravenous, 30 min", "scale": "baseline: radioactivity", "endpoint": "intact compound in plasma", "value": "87.8%"}
{"SMILES": "CC(CCC(=O)NCC(=O)O)C1CCC2C3CCC4CC(OC5OC(C(=O)O)C(O)C(O)C5O)CCC4(C)C3CC(O)C12C (stereo not shown)", "test system": "human, SLCO1B1 c.521 C/C, plasma", "setting": "fasting, geometric mean, sex-adjusted", "endpoint": "plasma concentration", "value": "367 ng/mL"}
{"SMILES": "CC(C)[C@H](NC(=O)CNC(=O)[C@H](CCC(N)=O)NC(=O)[C@H](C)N)C(=O)O", "test system": "human", "setting": "1 mg/kg single dose", "endpoint": "subjects with serious adverse events", "value": "0%"}
{"SMILES": "CC(C)C[C@@H]1NC(=O)[C@@H](Cc2c[nH]c3ccccc23)NC(=O)[C@H](CCCNC(=N)N)NC(=O)[C@@H](CCC(=O)O)NC(=O)[C@H](CCC(N)=O)NC(=O)[C@@H](CCC(=O)O)NC(=O)[C@H](CCCNC(=N)N)NC(=O)[C@@H](Cc2c[nH]c3ccccc23)NC1=O", "test": "LC-MS", "test system": "male BALB/cByJ mice", "setting": "intraperitoneal, 16 mg/kg", "endpoint": "plasma half-life", "value": "~6 h"}
{"SMILES": "O=C(N=P12CN3CN(CN(C3)C1)C2)c1ccccn1.[Cl][Au+][Cl].[O-][Cl+3]([O-])([O-])[O-]", "test": "NMR", "test system": "acetonitrile", "setting": "room temperature", "endpoint": "stability time", "value": "24 h"}
{"SMILES": "COC(=O)C[C@](O)(CCCC(C)(C)OC(C)=O)C(=O)O[C@@H]1C(OC)=C[C@]23CCCN2CCc2cc4c(cc2[C@H]13)OCO4", "test system": "CD1 mouse, plasma", "setting": "oral, 1 mg/kg, 2 h", "endpoint": "concentration", "value": "456 ng/mL"}
{"SMILES": "CC(C)C[C@@H](N)C(=O)NCC(=O)N[C@H](C)C(=O)N[C@H](CO)C(=O)N[C@H](Cc1c[nH]c2ccccc12)C(=O)N[C@H](Cc1c[nH]cn1)C(=O)N[C@H](CCCNC(=N)N)C(=O)N1CCC[C@@H]1C(=O)N[C@H](CC(=O)O)C(=O)N[C@H](CCCCN)C(=O)N[C@H](CS)C(=O)N[C@H](CS)C(=O)N[C@H](CC(C)C)C(=O)NCC(=O)N[C@H](Cc1ccc(O)cc1)C(=O)N[C@H](CCC(N)=O)C(=O)N[C@H](CCCCN)C(=O)N[C@H](CCCNC(=N)N)C(=O)N1CCC[C@@H]1C(=O)N[C@H](CC(C)C)C(=O)N1CCC[C@@H]1C(N)=O", "test": "LC-MS/MS", "test system": "rat plasma", "setting": "5000 ng/mL, 30 days, -80 °C, storage", "endpoint": "measured concentration", "value": "5570 ± 448 ng/mL"}
{"note": "For quick reference, copied from above:"}
{"SMILES": "O=C(N=P12CN3CN(CN(C3)C1)C2)c1ccccn1.[Cl][Au+][Cl].[O-][Cl+3]([O-])([O-])[O-]", "test": "NMR", "test system": "acetonitrile", "setting": "room temperature", "endpoint": "stability time", "value": "24 h"}
